Experimental data gathered from unrelated publications.
Protocols differ between the studies behind these lines.
PAK2: Serine/threonine-protein kinase PAK 2 (PAK2, Homo sapiens, UniProt Q13177)
UniProt Q13177, sequence (whole entry, looked up): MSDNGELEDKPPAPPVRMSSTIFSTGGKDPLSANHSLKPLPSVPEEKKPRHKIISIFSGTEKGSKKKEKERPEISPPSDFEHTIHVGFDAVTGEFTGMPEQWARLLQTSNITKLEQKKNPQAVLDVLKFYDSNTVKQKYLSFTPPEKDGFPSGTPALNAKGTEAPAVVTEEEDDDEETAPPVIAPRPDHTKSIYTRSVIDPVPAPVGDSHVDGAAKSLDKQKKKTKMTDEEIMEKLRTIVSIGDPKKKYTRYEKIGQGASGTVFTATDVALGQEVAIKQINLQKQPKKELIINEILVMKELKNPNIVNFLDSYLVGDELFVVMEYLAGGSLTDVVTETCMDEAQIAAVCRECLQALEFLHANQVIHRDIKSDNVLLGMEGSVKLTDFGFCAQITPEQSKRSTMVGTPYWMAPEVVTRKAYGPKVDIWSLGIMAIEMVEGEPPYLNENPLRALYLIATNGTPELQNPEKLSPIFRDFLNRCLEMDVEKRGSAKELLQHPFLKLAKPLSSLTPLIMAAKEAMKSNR
UniProt Q9Y6M4, sequence (whole entry, looked up): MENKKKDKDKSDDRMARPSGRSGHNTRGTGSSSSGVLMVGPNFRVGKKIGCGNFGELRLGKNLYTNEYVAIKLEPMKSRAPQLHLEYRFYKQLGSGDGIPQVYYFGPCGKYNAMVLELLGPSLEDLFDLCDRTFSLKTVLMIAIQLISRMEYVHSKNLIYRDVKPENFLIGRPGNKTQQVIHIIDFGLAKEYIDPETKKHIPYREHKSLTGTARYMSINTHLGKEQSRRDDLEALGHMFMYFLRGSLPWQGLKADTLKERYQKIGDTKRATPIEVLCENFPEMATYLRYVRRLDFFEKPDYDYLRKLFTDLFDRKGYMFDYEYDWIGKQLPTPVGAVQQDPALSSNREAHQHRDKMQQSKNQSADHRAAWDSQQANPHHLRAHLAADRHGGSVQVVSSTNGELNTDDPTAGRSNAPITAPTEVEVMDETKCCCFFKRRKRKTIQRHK
UniProt Q16620, sequence (whole entry, looked up): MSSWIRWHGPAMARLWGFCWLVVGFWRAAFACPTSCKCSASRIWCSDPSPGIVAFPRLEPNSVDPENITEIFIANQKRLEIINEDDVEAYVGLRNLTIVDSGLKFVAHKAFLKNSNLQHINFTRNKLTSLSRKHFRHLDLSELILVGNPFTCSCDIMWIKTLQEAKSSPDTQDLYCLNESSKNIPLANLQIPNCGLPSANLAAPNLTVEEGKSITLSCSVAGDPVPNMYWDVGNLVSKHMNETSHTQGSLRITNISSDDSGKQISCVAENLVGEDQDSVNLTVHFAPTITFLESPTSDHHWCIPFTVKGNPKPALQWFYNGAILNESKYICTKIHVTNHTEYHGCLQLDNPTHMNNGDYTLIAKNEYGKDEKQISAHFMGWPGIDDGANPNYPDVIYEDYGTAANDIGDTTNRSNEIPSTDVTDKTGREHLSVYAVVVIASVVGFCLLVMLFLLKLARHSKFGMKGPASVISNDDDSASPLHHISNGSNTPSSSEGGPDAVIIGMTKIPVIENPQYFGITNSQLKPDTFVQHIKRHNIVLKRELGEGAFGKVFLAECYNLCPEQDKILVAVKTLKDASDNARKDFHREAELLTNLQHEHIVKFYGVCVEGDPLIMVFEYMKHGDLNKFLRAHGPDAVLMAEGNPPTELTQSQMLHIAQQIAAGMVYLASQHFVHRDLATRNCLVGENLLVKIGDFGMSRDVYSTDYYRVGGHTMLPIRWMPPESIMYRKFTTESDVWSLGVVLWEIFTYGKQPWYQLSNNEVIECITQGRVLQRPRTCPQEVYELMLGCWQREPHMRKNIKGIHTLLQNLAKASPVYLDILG
UniProt P25103, sequence (whole entry, looked up): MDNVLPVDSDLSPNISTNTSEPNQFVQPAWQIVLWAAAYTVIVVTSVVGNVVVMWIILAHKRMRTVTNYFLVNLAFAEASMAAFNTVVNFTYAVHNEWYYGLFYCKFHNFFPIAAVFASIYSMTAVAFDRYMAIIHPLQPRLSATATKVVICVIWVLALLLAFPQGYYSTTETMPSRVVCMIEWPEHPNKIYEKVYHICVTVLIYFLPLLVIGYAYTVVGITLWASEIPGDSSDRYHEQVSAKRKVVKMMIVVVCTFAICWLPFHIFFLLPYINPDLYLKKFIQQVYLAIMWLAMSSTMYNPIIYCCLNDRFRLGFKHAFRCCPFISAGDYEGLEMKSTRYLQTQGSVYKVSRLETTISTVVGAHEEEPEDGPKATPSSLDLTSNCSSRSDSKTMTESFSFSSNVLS
UniProt Q13873, sequence (whole entry, looked up): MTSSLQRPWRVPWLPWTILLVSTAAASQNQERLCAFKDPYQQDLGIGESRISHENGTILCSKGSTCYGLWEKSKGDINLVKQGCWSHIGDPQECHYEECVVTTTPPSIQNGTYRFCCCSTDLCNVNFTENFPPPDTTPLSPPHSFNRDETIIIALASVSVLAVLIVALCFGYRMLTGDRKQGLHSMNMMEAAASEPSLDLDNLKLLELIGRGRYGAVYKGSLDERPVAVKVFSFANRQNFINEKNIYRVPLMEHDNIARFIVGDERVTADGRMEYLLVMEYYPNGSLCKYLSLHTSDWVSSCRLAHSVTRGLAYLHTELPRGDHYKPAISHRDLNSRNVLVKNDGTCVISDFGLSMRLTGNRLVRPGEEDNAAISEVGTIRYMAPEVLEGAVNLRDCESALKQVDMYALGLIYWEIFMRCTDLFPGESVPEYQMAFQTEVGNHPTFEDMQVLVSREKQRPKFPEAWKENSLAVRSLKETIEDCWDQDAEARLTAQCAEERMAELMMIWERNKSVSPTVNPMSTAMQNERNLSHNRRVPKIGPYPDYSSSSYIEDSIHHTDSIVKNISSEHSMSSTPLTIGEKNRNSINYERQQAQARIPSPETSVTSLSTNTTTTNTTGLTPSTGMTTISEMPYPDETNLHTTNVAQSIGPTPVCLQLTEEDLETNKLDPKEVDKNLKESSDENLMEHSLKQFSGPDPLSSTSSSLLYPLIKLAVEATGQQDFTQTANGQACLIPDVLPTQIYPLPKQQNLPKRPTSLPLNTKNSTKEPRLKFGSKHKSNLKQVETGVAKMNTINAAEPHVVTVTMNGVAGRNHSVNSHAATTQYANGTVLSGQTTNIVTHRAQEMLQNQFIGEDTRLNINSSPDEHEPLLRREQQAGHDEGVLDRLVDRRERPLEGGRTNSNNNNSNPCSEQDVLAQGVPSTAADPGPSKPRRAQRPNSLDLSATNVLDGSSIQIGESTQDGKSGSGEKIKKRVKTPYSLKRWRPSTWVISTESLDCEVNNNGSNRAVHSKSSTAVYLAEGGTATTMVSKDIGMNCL
UniProt P45983, sequence (whole entry, looked up): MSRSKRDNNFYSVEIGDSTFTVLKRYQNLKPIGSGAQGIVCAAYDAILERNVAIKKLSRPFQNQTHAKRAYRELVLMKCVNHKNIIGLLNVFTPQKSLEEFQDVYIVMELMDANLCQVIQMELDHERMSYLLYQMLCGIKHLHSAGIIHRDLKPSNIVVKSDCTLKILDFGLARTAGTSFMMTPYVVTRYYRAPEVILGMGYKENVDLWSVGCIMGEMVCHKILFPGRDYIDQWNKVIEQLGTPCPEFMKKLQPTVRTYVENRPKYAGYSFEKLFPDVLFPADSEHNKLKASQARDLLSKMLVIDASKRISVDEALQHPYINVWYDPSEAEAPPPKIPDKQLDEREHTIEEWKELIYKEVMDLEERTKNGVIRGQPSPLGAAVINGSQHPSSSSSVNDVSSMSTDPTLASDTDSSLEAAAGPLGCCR
UniProt P18089, sequence (whole entry, looked up): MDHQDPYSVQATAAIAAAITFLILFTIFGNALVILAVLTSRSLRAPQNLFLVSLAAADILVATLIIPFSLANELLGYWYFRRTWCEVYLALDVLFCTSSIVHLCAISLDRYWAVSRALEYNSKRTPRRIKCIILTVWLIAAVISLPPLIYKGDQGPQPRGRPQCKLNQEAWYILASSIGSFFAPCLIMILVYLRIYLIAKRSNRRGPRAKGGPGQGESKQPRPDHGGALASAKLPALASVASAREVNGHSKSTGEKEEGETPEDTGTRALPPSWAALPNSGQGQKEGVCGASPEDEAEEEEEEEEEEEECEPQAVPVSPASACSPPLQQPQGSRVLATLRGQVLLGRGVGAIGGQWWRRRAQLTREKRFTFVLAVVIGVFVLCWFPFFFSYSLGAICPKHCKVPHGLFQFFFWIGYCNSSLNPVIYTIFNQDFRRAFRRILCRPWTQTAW
UniProt P47901, sequence (whole entry, looked up): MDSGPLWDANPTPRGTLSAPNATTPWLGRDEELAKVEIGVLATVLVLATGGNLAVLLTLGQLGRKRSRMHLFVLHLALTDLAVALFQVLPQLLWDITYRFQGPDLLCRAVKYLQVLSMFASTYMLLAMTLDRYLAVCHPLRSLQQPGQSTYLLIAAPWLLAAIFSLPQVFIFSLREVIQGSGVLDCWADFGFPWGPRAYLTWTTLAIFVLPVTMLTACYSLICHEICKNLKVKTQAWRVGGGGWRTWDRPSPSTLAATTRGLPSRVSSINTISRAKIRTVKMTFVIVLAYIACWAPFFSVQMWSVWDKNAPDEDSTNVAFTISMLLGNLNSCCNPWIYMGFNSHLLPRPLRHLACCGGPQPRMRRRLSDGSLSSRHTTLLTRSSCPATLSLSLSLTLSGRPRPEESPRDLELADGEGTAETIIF

Structure (SMILES) = CN(/N=C/c1ccccc1C(=O)O)c1nc(-c2ccccc2Cl)cs1; target = Casein kinase I isoform gamma-3 (CSNK1G3, Homo sapiens, UniProt Q9Y6M4); test = enzyme activity, inhibitor; conditions = 1 µM; inhibition = -29.5%
Structure (SMILES) = O=C(CN1CN(c2ccccc2)C2(CCN(C(=O)c3cnc4[nH]ncc4c3)CC2)C1=O)NCC(F)(F)F; target = Mitogen-activated protein kinase 8 (MAPK8, Homo sapiens, UniProt P45983); test = inhibitor; conditions = concentration not given; inhibition = < 50%
Structure (SMILES) = O=C(O)c1ccccc1/C=N/Nc1nc(-c2ccccc2Cl)cs1; target = BDNF/NT-3 growth factors receptor (NTRK2, Homo sapiens, UniProt Q16620); test = enzyme activity, inhibitor; conditions = 1 µM; inhibition = -8.42%
Structure (SMILES) = C[C@H](NCc1ccc(-c2ccc(C(F)(F)F)cc2)cc1)C(N)=O; target = Bone morphogenetic protein receptor type-2 (BMPR2, Homo sapiens, UniProt Q13873); test = cell-free assay, competition with immobilised ligand; conditions = 1 µM; inhibition = 0%
Structure (SMILES) = COc1ccc(F)cc1S(=O)(=O)Nc1cnc2c(c1)C(=O)NCCO2; target = Substance-P receptor (TACR1, Homo sapiens, UniProt P25103); test = ligand displacement, radioligand; conditions = 10 µM; inhibition = 4%
Structure (SMILES) = CN(C)[C@H]1C[C@@]23CC[C@@]4(O2)C(=CC[C@]2(C)[C@@H](c5ccc6ccncc6c5)CC[C@H]24)C=C3[C@@H](O)[C@@H]1O; target = PAK2; test = probe labelling, inhibitor, KiNativ ATP probe MS; system = native lysate; conditions = 1 µM; inhibition = 2.5%
Structure (SMILES) = CS(C)(=O)=Nc1ccc(-c2ccc(-c3nc4cc(O[C@@H]5CO[C@H]6[C@@H]5OC[C@H]6O)[nH]c4cc3F)cc2)cc1; target = Vasopressin V1b receptor (AVPR1B, Homo sapiens, UniProt P47901); test = ligand displacement, radioligand; conditions = 10 µM; inhibition = 7%
Structure (SMILES) = N[C@H](C(=O)N1CCCC1)C1CCN(c2nccc3c(-c4ncc(Cl)cc4Cl)cccc23)CC1; target = Alpha-2B adrenergic receptor (ADRA2B, Homo sapiens, UniProt P18089); test = functional response, antagonist; conditions = 10 µM; inhibition = 7%
Structure (SMILES) = CC(C)[C@H]1NC(=O)C[C@H]2/C=C/CCSSC[C@@H](NC1=O)C(=O)N[C@H](Cc1cccc3ccccc13)C(=O)NCC(=O)O2; target = PAK2; test = enzyme activity, inhibitor; conditions = 10 µM; inhibition = -1.3%
